Experimental data pooled from the literature.
Numbered parts are unrelated; each lists some results of a single study. Substitutions count along the parent as printed.

Series 1 — technique: RNA Bind-n-Seq; form: RNA; sample: in vitro; tested at: 20 nM; notes: 6-mer, flanks averaged, single round; together with: 150 mM LiCl; reference: input library; reading: higher = stronger binding; quantity: 6-mer enrichment (R)
Target: TAR DNA-binding protein 43, full length, His tag (TARDBP, Homo sapiens, UniProt Q13148, residues 1-414)
CGACUU: 0.838
GUCCCU: 1.07
UUUCAU: 0.998
AUUAAA: 0.905
UCGCGU: 0.982
UAUCGU: 0.957

Series 2 — technique: universal PBM; form: double-stranded DNA, one strand shown; sample: in vitro; tested at: not given; reading: higher = stronger binding; quantity: E-score
Target: Sal-like protein 4, full length isoform B (SALL4, Homo sapiens, UniProt Q9UJQ4-2, residues 1-616)
Notes: 8-mer, flanks averaged, mean of replicates
AGACTTCG: -0.0834
TCAAGCCA: -0.0805
TCGGGGAA: -0.103
CACGTATG: 0.133
CTGGGACA: -0.18

Mixed results — CCNB2: CCNB2, cyclin fold, Cln2 fusion (human)
P1: BRCA2 docking peptide (human); PSIKRNLLNEFDR; partner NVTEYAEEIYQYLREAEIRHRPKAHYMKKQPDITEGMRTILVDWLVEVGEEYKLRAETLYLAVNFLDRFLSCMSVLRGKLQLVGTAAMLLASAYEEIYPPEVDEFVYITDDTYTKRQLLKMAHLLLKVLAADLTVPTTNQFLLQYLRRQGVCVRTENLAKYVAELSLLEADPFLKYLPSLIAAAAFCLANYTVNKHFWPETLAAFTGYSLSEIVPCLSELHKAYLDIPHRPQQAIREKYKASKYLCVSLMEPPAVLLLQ
P2: SLBP docking peptide (human); ARYKRKLLINDFG; partner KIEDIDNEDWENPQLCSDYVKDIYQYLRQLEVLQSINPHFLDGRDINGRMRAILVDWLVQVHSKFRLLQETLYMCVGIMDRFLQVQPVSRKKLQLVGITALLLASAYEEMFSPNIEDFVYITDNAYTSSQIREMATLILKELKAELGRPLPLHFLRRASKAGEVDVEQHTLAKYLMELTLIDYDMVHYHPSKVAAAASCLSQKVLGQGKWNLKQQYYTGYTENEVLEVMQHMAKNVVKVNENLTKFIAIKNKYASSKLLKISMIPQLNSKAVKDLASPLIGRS
P1 D12E — normalised enrichment score (CCNA1, cyclin fold, Cln2 fusion (human); yeast growth competition, sequencing; yeast; weak parent motif; reference: not given, higher = stronger binding): 0.578
PhoQ, residues 284 288 289 292 302 303 ASASEQ — fold induction (PhoP, residues 12 14 15 18 19 TTLRV (Escherichia coli, UniProt P23836); Sort-seq, refers to: YFP reporter; E. coli; PhoQ-PhoP variant library, together with: 10 µM Mg2+; reference: high Mg2+ state, higher = stronger signaling): 2.62
SNARRSLNFGGST — score relative, wild type, peptide (human cyclin B2; cyclin docking binding, deep mutational scanning; peptide, yeast cyclin B2-Cln2 system; direction not given): 0
P2 R5Y — normalised enrichment score (CCNB2; yeast growth competition, sequencing; yeast; weak parent motif; reference: not given, higher = stronger binding): 0.518
P2 D11Y — normalised enrichment score (CCNB2; yeast growth competition, sequencing; yeast; weak parent motif; reference: not given, higher = stronger binding): 0.915
